Results gathered from unrelated publications.
Lines come from different studies, so protocols differ. ± gives the spread as reported.
PPO3: PPO3 (Agaricus bisporus, UniProt C7FF04)
Proteasome subunit alpha type-2/Proteasome subunit alpha type-6 20S proteasome: Proteasome subunit alpha type-2/Proteasome subunit alpha type-6, 20S proteasome (Homo sapiens, UniProt P25787+P60900)
BRD4: Bromodomain-containing protein 4 (BRD4, Homo sapiens, UniProt O60885)
T1: SNCA mRNA 5' UTR IRE (Homo sapiens); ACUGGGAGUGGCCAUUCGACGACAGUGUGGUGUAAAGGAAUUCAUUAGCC
T2: dsDNA; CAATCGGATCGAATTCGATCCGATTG
T3: DNA hairpin, hairpin, TTTT loop; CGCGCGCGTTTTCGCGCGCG

Compound	target	test	test system	conditions	scale	endpoint	value
N=C(N)c1ccc(Nc2ccc(-c3cc4ccc(C(=N)N)cc4[nH]3)cc2)cc1	T1, SNCA mRNA 5' UTR IRE (Homo sapiens)	competition with labeled RNA, competitor, competitive fluorescence assay	–	with: 2-aminopurine-labeled SNCA IRE RNA	–	Kd	1500 nM
C[n+]1c(C=Cc2ccc(N(c3ccccc3)c3ccccc3)cc2)cc(C=C2Sc3ccccc3N2CCCN2CCCC2)c2ccccc21	T2, dsDNA	competitor, fluorescence competition	–	pH 7.4, KCl 60 mM	–	binding	binds weakly
CC(C)C[C@H](NC(=O)CNC(=O)[C@H](CC(C)C)NC(=O)[C@@H]1CCCN1C(=O)CNC(=O)[C@H](Cc1ccccc1)NC(=O)[C@H](Cc1ccccc1)NC(=O)OCC1c2ccccc2-c2ccccc21)C(=O)N[C@@H](CCCNC(=N)N)C(=O)N[C@@H](CO)C(=O)N[C@@H](CCCCN)C(=O)O	MMP9 (Homo sapiens, UniProt P14780)	substrate, HPLC	–	500 µM, 72 h, pH 7.5, 37 °C	–	hydrolysis product	28%
COc1cncc(-c2cc(F)cc(CNC(=O)c3cc(N4CC[C@@](C#N)(C5CC5)C4=O)cc(C)n3)c2)c1	Proline--tRNA ligase (Plasmodium falciparum, UniProt Q8I5R7)	thermal shift	–	with: ATP 2 mM	–	melting temperature	70.8 °C
Nc1ccn([C@H]2O[C@@H](COP(=O)(O)O)[C@H](O)[C@@H]2O)c(=O)n1	UMP-CMP kinase (Homo sapiens, UniProt P30085)	enzyme activity, substrate, coupled spectrophotometric	–	–	relative to: D-CMP	relative Vmax	0.054 ± 0.001%
CC[C@H](C)[C@H](NC(=O)[C@H](CCCCN)NC(=O)[C@H](CCCCN)NC(=O)[C@@H](NC(=O)[C@H](CCC(=O)O)NC(=O)[C@H](CCC(=O)O)NC(=O)[C@H](CCC(=O)O)NC(=O)[C@H](CO)NC(=O)[C@H](CC(C)C)NC(=O)[C@H](CC(=O)O)NC(=O)[C@H](CC(C)C)NC(=O)CNC(=O)[C@H](CCCNC(=N)N)NC(=O)[C@H](CC(C)C)NC(=O)[C@H](CO)NC(=O)CNC(=O)CNC(=O)CNC(=O)CCCC[C@@H]1SC[C@@H]2NC(=O)N[C@@H]21)C(C)C)C(=O)N[C@@H](CC(C)C)C(=O)N[C@@H](CC(=O)O)C(=O)N[C@@H](CCC(=O)O)C(=O)N[C@H](C(=O)N[C@H](C(=O)N[C@@H](CCCCN)C(=O)N[C@@H](C)C(=O)O)C(C)C)[C@@H](C)CC	Fab B11 antibody (human)	binding, biolayer interferometry	–	–	relative to: alanine mutant over wild type	Kd ratio	4.8
CC(C)[C@H](C(=O)Nc1ncc(F)s1)c1ccc(Cl)cc1	Free fatty acid receptor 2, with β-arrestin 2 (FFAR2, Homo sapiens, UniProt O15552)	β-arrestin-2 recruitment, NanoBiT	cells expressing human FFAR2	concentration not given, with: acetate at fixed concentrations	–	potency and slope change	increased
CCCCCCCCC(=O)Nc1ccc(OC)nc1C	Carboxylesterase 3 (CES3, Homo sapiens, UniProt Q6UWW8)	substrate	–	50 µM, pH 8, 37 °C, enzyme purity 3%	–	specific activity	8.5 pmol/min/µg
CSCC[C@H](NC(=O)[C@H](CC(C)C)NC(=O)[C@H](Cc1c[nH]cn1)NC(=O)CNC(=O)[C@@H](NC(=O)[C@H](C)NC(=O)[C@H](Cc1c[nH]c2ccccc12)NC(=O)[C@H](Cc1c[nH]cn1)NC(=O)[C@H](CC(N)=O)NC(=O)CNC(=O)[C@H](CCCNC(=N)N)NC(=O)[C@@H]1CCCN1C(=O)[C@H](Cc1ccc(O)cc1)NC(=O)[C@H](CCSC)NC(=O)[C@H](CC(C)C)NC(=O)[C@@H](NC(=O)[C@H](CC(C)C)NC(=O)[C@@H](NC(=O)[C@@H](NC(=O)CNC(=O)CNC(=O)CNC(=O)[C@H](C)NC(=O)[C@@H]1CCCN1C(=O)[C@H](CC(C)C)NC(=O)[C@@H]1CCCN1C(=O)[C@@H](N)C(C)C)[C@@H](C)O)C(C)C)[C@@H](C)O)C(C)C)C(N)=O	GRPR (Homo sapiens, UniProt P30550, R287A)	calcium mobilization	–	–	relative to: R287A mutant over wild type	fold decrease in potency	51 fold
NC(=O)C[C@H](NC(=O)[C@H](CC(N)=O)NC(=O)[C@H](CCC(=O)O)NC(=O)[C@@H](N)CS)C(=O)O	PPO3	enzyme activity, inhibitor	–	12.5 µM	–	remaining activity	86.4%
CC(C)CN(CC(C)C)C(=O)/C=C/C=C/c1ccc2c(c1)OCO2	Gabra2/Gabrb2, with γ2S subunit (Rattus norvegicus, UniProt P23576+P63138)	GABA current potentiation, positive modulator, two-electrode voltage clamp	Xenopus oocytes expressing α2β2γ2S	with: GABA EC3-7	–	Hill coefficient	1.3 ± 0.3
CC(=O)Nc1ccc2[nH]c(C(F)(F)F)nc2c1	DUSP3 (Homo sapiens, UniProt P51452)	ligand-observed 19F NMR	–	concentration not given, with: DUSP3 4 or 8 µM	–	binding	active
Nc1ncnc2c1ncn2[C@@H]1O[C@H](CO)[C@@H](O[C@H]2O[C@H](CO)[C@@H](OP(=O)(O)O)[C@H](OP(=O)(O)O)[C@H]2O)[C@H]1O	Inositol 1,4,5-trisphosphate-gated calcium channel ITPR1, IP3-binding core (Itpr1, Rattus norvegicus, UniProt P29994, R504Q)	binding, 3H-IP3 competition	–	IP3-binding core	relative to: R504Q over wild type	fold loss of affinity	35 fold
O=C(O)Cc1ccccc1O	p-hydroxyphenylacetate 3-hydroxylase, reductase component (C1-hpah, Acinetobacter baumannii, UniProt Q6Q271)	ITC	–	pH 7	–	-TΔS	3.79 ± 0.87 kcal/mol
CC(C)C[C@H](NC(=O)[C@H](CC(N)=O)NC(=O)[C@H](CCC(=O)O)NC(=O)[C@@H](N)CS)C(=O)O	PPO3	enzyme activity, inhibitor	–	12.5 µM	–	remaining activity	90.5%
CCCCCCCC[C@@H](O)[C@H](C)C(=O)N[C@H](CCC(=O)O)C(=O)N[C@H](CC(=O)O)C(=O)N[C@H](CC(C)C)C(=O)N[C@H](CC(C)C)C(=O)N[C@H](CC(C)C)C(=O)N[C@H](CC(C)C)C(=O)N[C@@H](C(N)=O)C(C)C	Mediator of RNA polymerase II transcription subunit 25, ACID domain (Homo sapiens, UniProt Q71SY5)	thermal stability, differential scanning fluorimetry	–	5 equivalents, with: Mediator of RNA polymerase II transcription subunit 25 8 µM	relative to: unbound protein	absolute ΔTm	1.7 °C
O=C(CCn1ccc2ccccc21)N(c1ccc(F)cc1)c1ccc(F)cc1	Proteasome subunit alpha type-2/Proteasome subunit alpha type-6 20S proteasome	proteolysis, activator, fluorogenic peptide	purified 20S proteasome	up to 30 µM, with: Suc-LLVY-AMC, Z-LLE-AMC, Boc-LRR-AMC	relative to: vehicle	maximum fold increase	3.5 ± 0.9
NS(=O)(=O)c1ccc(N2N=C(C(F)(F)F)CC2c2ccc(F)cc2F)cc1 (stereo not shown)	Prostaglandin G/H synthase 1 (Canis lupus familiaris, UniProt Q8HZR1)	TXB2 formation, inhibitor	dog whole blood	clotting	–	Hill coefficient	1.7
COc1cc(F)c(C(C)C)cc1C1=C(CN2C(=O)O[C@H](c3cc(C(F)(F)F)cc(C(F)(F)F)c3)[C@@H]2C)CC(C)(C)CC1	Cholesteryl ester transfer protein (Homo sapiens, UniProt P11597)	enzyme activity	healthy male subjects, plasma	oral, 100 mg single dose	relative to: baseline	maximum inhibition	78.3%

Compound	target	test	test system	conditions	scale	endpoint	value
O=C(Cn1c2ccccc2c2ccccc21)N(c1ccc(F)cc1)c1ccc(F)cc1	Proteasome subunit alpha type-2/Proteasome subunit alpha type-6 20S proteasome	proteolysis, activator, fluorogenic peptide	purified 20S proteasome	up to 30 µM, with: Suc-LLVY-AMC, Z-LLE-AMC, Boc-LRR-AMC	relative to: vehicle	maximum fold increase	5.1 ± 1.1
CC(C)C[C@H](NC(=O)[C@H](CC(C)C)NC(=O)[C@H](CCCNC(=N)N)NC(=O)[C@@H](N)CS)C(=O)O	PPO3	enzyme activity, inhibitor	–	100 µM	–	remaining activity	70.4%
Cc1nnc(-c2ccc(CNC(=O)CCCCCOc3cccc4c3C(=O)N(C3CCC(=O)NC3=O)C4=O)cc2)nn1 (stereo not shown)	BRD4	degrader, immunoblot	HeLa	concentration not given	–	protein level	no effect
C[C@@]12CC[C@@H]3c4cc(Cl)c(O)cc4CC[C@H]3[C@@H]1CCC2=O	AKR1C1 (Homo sapiens, UniProt Q04828)	enzyme activity, inhibitor, absorbance	–	100 µM, pH 9	–	inhibition	45.1%
O=C(NCc1ccc2c(c1)OCO2)c1ccnc(C(=O)NCc2ccc3c(c2)OCO3)c1	Collagenase 3 (MMP13, Homo sapiens, UniProt P45452)	collagen degradation	–	unit not given	relative to: collagen assay over isolated enzyme	potency shift	> 100
CCCC[C@H](NC(=O)COCC(=O)NCCCOCCOCCOCCCNC(=O)CNC(=O)[C@@H]1CCCN1C(=O)CNC(=O)[C@@H]1CCCN1C(=O)CNC(=O)[C@@H]1CCCN1C(=O)CNC(=O)[C@@H]1CCCN1C(=O)CNC(=O)[C@@H]1CCCN1C(=O)CNC(=O)[C@@H]1CCCN1C(=O)CNC(=O)[C@@H]1CCCN1C(=O)CNC(=O)[C@@H]1CCCN1C(=O)CNC(=O)[C@@H]1CCCN1C(=O)CNC(=O)[C@@H]1CCCN1C(=O)CNC(=O)[C@@H]1CCCN1C(=O)CNC(=O)[C@@H]1CCCN1C(=O)CNC(=O)[C@@H]1CCCN1C(=O)CNC(=O)[C@@H]1CCCN1C(=O)CNC(=O)[C@@H]1CCCN1C(=O)CNC(=O)[C@@H]1CCCN1C(=O)CNC(=O)[C@@H]1CCCN1C(=O)CNC(=O)[C@@H]1CCCN1C(=O)COCC(=O)NCCCOCCOCCOCCCNC(=O)[C@H](Cc1c[nH]c2ccccc12)NC(=O)[C@H](CCCNC(=N)N)NC(=O)[C@@H](Cc1ccccc1)NC(=O)[C@H](Cc1c[nH]cn1)NC(=O)[C@H](CCC(=O)O)NC(=O)[C@H](CCCC)NC(=O)[C@H](CO)NC(C)=O)C(=O)NCC(=O)N[C@@H](Cc1c[nH]c2ccccc12)C(=O)N[C@@H](CCCC)C(=O)N[C@@H](CC(=O)O)C(=O)N[C@@H](Cc1ccccc1)C(N)=O	CCKBR/MC4R (Homo sapiens, UniProt P32239+P32245)	bivalent binding	cells expressing CCK2R and MC4R	with: Eu-DTPA-CCK-8	relative to: single- over dual-expressing cells	IC50 ratio	2 fold
CC(C)CC(NC(=O)C(NC(=O)NC(C(=O)O)C(C)C)C1CCNC(=N)N1)C(=O)NCCCNC(C(=O)O)C(OC1OC(CN)C(O)C1O)C1OC(n2ccc(=O)[nH]c2=O)C(O)C1O (stereo not shown)	mraY (Aquifex aeolicus, UniProt O66465, H325A)	ITC	–	concentration not given, H325A mutant	–	binding stoichiometry	0.56 ± 0.07 sites
COc1ccc(-c2cc(C(F)(F)F)nc(S(=O)(=O)CCCC(=O)Nc3ccc(F)cc3F)n2)cc1OC	Glucagon-like peptide 1 receptor (Rattus norvegicus, UniProt P32301)	refers to: cAMP	INS-1 832/13	25 µM	relative to: basal	basal activity increase	20%
CC1=C(/C=C/C(C)=C/C=C/C(C)=C/C=C/C=O)C(C)(C)CCC1	CNGA1 (Bos taurus, UniProt Q00194)	cGMP-activated current, inhibitor, inside-out patch clamp	Xenopus oocytes	+100 mV, with: 2 mM cGMP	–	Hill coefficient	2.5
[Ru+2].[Ru+2].c1cnc2c(c1)c1nc(-c3ccc(OCCOCCOCCOCCOc4ccc(-c5nc6c7cccnc7c7ncccc7c6[nH]5)cc4)cc3)[nH]c1c1cccnc12.c1cnc2c(c1)ccc1cccnc12.c1cnc2c(c1)ccc1cccnc12.c1cnc2c(c1)ccc1cccnc12.c1cnc2c(c1)ccc1cccnc12	T3, DNA hairpin, hairpin, TTTT loop	BLI	–	pH 7.04, K+ 100 mM	–	Kd	3090 nM
Nc1cc(Oc2ccc(-c3ccccc3)cc2)nn1S(=O)(=O)c1ccc(Oc2ccccc2)cc1	Genome polyprotein, NS2B-NS3 protease (dengue virus type 2, UniProt P29990)	ESI-TOF MS	–	20 µM, 1 h, 25 °C	relative to: DMSO control	protein mass shift	0 Da
Cc1ccc(-c2ccccn2)cc1C(=O)NCCCCCCCCNC(=O)CNC(=O)CNC(=O)[C@H](CCCCN)NC(=O)[C@H](CCCCN)NC(=O)[C@@H](N)CCCCN	Calmodulin-1 (CALM1, Homo sapiens, UniProt P0DP23)	binding, quartz crystal microbalance	–	25 °C, no Ca2+	–	apparent association constant	910000 ± 10000 M⁻¹
NCCCNCCCCNCCCNCc1ccccc1	Peroxisomal N(1)-acetyl-spermine/spermidine oxidase (Mus musculus, UniProt Q8C0L6)	enzyme activity, substrate, fluorescence	–	pH 7.5	–	Km	0.2 µM
COC(=O)C1=Cc2ccccc2S1(=O)=O	UBA1 (Homo sapiens, UniProt P22314)	–	–	10 µM, 30 min, 37 °C	–	ubiquitin charging	no effect
CC(/C=C/C(=O)NO)=C\[C@@H](C)C(=O)c1ccc(N(C)C)cc1	HDAC8 (Homo sapiens, UniProt Q9BY41)	isothermal titration calorimetry	–	concentration not given, pH 7.5, 25 °C	–	binding enthalpy (ΔH)	-8.93 ± 0.5 kcal/mol
Cc1ncsc1-c1ccc([C@@H]2CCCCCCNC(=O)C[C@@H]3N=C(c4ccc(cc4)OCCCCCC(=O)N[C@@H](C(C)(C)C)C(=O)N4C[C@H](O)C[C@H]4C(=O)N2)c2c(sc(C)c2C)-n2c(C)nnc23)cc1	BRD4	degrader, immunoblotting	PC-3	64 nM, 24 h, both isoforms	–	degradation	> 90%
CNc1ccccc1C(=O)O[C@H]1C[C@H](n2cnc3c(N)ncnc32)O[C@@H]1COP(=O)(O)OP(=O)(O)O	Unconventional myosin-Va (Gallus gallus, UniProt Q02440, D297C/G292C/I296C/S293C/V295G)	stopped-flow FRET	–	10 °C, with: MgCl2 10 mM	–	pocket forward rate constant	0.37 ± 0.29 s⁻¹
NCCCC[C@H](NC(=O)[C@H](C/C=C\C[C@H](NC(=O)[C@@H]1CCCN1)C(=O)N[C@@H](CCCCN)C(=O)NCCCN)NC(=O)[C@@H]1CCCN1)C(=O)NCCCN	(CAG)10 RNA	SPR	–	–	–	residence time	36 s
